Published values from different studies.
Each numbered part is a random draw from the data of one study; scales do not carry over between parts. Positions count from the first letter of the parent shown.

Set 1 — method: aptamer microarray, sandwich; molecule type: DNA with 2'F-ANA; matrix: in vitro; tested at: 200 nM; with: Cy3 exosite-II aptamer, 400 nM; direction: higher = stronger binding; sequence: GGTTGGTGTGGTTGG
Target: Prothrombin, mature alpha-thrombin (F2, Homo sapiens, UniProt P00734)
Notes: whole 15-mer aptamer, many near background
| Modification | mean fluorescence intensity |
| --- | --- |
| 2'F-ANA at 4 12 15 | 702 a.u. |
| 2'F-ANA at 2 5 7 11 | 73.7 a.u. |
| 2'F-ANA at 1 2 3 4 6 10 11 12 14 | 56.8 a.u. |
| 2'F-ANA at 1 2 3 4 7 8 12 14 15 | 132 a.u. |
| 2'F-ANA at 1 2 3 5 6 8 10 14 | 47.6 a.u. |
| 2'F-ANA at 1 4 5 6 7 8 9 10 11 12 14 | 47.7 a.u. |
| 2'F-ANA at 1 3 6 7 9 | 239 a.u. |
| 2'F-ANA at 4 5 7 8 12 | 194 a.u. |

Set 2 — method: RNA Bind-n-Seq; molecule type: RNA; matrix: in vitro; tested at: 200 nM; notes: whole 134-nt RNA, ends assumed; with: 150 mM LiCl; relative to: input library; direction: higher = stronger binding; each molecule: 7-deaza-guanosine replaces G
Target: Ras GTPase-activating protein-binding protein 1, full length (G3BP1, Homo sapiens, UniProt Q13283)
Chain of UniProt Q13283 (whole entry, looked up): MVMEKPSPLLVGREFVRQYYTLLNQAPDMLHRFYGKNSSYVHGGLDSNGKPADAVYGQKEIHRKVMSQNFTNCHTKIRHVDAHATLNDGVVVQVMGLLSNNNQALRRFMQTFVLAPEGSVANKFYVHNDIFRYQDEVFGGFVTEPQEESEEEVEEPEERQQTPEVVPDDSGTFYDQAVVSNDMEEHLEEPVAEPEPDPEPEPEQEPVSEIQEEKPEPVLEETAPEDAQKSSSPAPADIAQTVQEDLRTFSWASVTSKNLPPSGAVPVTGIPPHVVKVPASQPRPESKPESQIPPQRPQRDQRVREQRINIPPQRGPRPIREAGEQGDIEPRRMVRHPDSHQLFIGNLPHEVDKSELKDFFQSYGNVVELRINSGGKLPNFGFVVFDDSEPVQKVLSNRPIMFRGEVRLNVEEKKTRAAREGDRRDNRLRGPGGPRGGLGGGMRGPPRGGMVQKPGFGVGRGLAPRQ
All sequences stand within: GGGAGUUCUACAGUCCGACGAUC … UGGAAUUCUCGGGUGUCAAGG
| Sequence | log2 enrichment |
| --- | --- |
| GUCCUGUGCUACACAUCGUAUGUACCGAAUCGGGUUUUUGGGAAAGGGUUUUUUUGGGAAAGUAUUAUGUUACGCCGUUCGGAUCUGCAC | -1.06 |
| UGGGAGGUGGAUUUUGUUUAUUUUUUGAGCUCAUUUCCAGGGGUGGGAAUUUUUUUUUAAUAUGUGUCAUGAAUAAAGUUGUUUUUGAAA | 0.325 |
| AAGUCCUGUGCUACACAUCGUAUGUACCGAAUCGGGGAAAGGGGUUUGGGGUGGGGAAAGUAUUAUGUUACGCCGUUCGGAUCUGCACUU | -0.387 |
| ACCAUAAAGGUGGGCAUCUUUGGGAAGUGGGGCAAGGGGGGGAUAGGGAGGGGGGUAACACUUUGGGAACAGGUGGUCCCAGGUCGUUUC | 0.415 |
| GGUGGACUAUGGUGCAACAGCAGAAGAGCUGGAAGCUCACUUUCAUGGCUGUGGUUCAGUCAACCGUGUUACCAUACUGUGUGACAAAUU | -1.36 |
| CUGCGCGCGGAUUUCCCUCUCUGAGGAAGUUUAUCCUUGUGCCUUCUGGAGGAUUUCUCUCUAGCUCGACUCACUCUGGACUGACUCGCU | -0.99 |
| GUCCUGUGCUACACAUCGUAUGUACCGAAUCGGGGUUUUUGGGUUUUUGGUUUUUGGGAAAGUAUUAUGUUACGCCGUUCGGAUCUGCAC | -0.726 |
| CAAGUCCUGUGCUACACAUCGUAUGUACCGAAUCGGGAAAGGGUUUUUGGGAGGGAAAGUAUUAUGUUACGCCGUUCGGAUCUGCACUUC | 0.097 |

Set 3 — target: CCNB2, cyclin fold, Cln2 fusion (human); method: yeast growth competition, sequencing; matrix: yeast; notes: weak parent motif; relative to: not given; direction: higher = stronger binding
Parent: CDC6 docking peptide (human); TLKGRRLVFDNQL; partner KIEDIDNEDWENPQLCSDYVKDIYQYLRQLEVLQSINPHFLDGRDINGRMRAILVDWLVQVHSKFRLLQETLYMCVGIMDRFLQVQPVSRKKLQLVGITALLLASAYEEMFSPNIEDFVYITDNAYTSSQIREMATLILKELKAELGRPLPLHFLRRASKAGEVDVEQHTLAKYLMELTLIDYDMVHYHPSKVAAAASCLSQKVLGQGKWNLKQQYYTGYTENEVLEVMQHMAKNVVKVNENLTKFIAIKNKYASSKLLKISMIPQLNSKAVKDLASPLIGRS
| Variant | normalised enrichment score |
| --- | --- |
| TRKGRRLVFDNQL [L2R] | 1.11 |
| TLKGRRLVFDIQL [N11I] | -0.251 |
| TLKKRRLVFDNQL [G4K] | -0.129 |
| TLKGTRLVFDNQL [R5T] | 0.547 |
| TLKGRRLVFNNQL [D10N] | 0.848 |

Single results of other studies
| Substance | target | assay | system | setting | scale | endpoint | value |
| --- | --- | --- | --- | --- | --- | --- | --- |
| PhoQ, residues 284 288 289 292 302 303 SSTLSG | PhoP, residues 12 14 15 18 19 SPWRL (Escherichia coli, UniProt P23836) | Sort-seq, refers to: YFP reporter | E. coli | PhoQ-PhoP variant library, with: 10 µM Mg2+ | relative to: high Mg2+ state, higher = stronger signaling | fold induction | 13.9 |

A few entries again (set 1):
| Modification | mean fluorescence intensity |
| --- | --- |
| 2'F-ANA at 1 3 6 7 9 | 239 a.u. |
| 2'F-ANA at 4 12 15 | 702 a.u. |
| 2'F-ANA at 1 4 5 6 7 8 9 10 11 12 14 | 47.7 a.u. |
